Published values collected from several papers.
Each line is one published result; not all experiments were run side by side. Several values in a cell are separate wells, animals, samples, runs or records. ± marks the error that the study gave.
Chain of UniProt Q13561 (whole entry, looked up): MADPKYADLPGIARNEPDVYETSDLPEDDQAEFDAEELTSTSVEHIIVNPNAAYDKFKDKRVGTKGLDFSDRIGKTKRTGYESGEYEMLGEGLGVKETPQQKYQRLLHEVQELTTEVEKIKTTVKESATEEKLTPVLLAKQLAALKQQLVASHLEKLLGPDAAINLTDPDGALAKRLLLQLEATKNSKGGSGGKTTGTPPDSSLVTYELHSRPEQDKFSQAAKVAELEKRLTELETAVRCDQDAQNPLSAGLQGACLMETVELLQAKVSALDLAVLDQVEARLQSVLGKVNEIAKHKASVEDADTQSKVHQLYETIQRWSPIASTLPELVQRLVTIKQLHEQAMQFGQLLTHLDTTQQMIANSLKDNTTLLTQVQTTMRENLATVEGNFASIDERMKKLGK
Chain of UniProt Q9H422 (whole entry, looked up): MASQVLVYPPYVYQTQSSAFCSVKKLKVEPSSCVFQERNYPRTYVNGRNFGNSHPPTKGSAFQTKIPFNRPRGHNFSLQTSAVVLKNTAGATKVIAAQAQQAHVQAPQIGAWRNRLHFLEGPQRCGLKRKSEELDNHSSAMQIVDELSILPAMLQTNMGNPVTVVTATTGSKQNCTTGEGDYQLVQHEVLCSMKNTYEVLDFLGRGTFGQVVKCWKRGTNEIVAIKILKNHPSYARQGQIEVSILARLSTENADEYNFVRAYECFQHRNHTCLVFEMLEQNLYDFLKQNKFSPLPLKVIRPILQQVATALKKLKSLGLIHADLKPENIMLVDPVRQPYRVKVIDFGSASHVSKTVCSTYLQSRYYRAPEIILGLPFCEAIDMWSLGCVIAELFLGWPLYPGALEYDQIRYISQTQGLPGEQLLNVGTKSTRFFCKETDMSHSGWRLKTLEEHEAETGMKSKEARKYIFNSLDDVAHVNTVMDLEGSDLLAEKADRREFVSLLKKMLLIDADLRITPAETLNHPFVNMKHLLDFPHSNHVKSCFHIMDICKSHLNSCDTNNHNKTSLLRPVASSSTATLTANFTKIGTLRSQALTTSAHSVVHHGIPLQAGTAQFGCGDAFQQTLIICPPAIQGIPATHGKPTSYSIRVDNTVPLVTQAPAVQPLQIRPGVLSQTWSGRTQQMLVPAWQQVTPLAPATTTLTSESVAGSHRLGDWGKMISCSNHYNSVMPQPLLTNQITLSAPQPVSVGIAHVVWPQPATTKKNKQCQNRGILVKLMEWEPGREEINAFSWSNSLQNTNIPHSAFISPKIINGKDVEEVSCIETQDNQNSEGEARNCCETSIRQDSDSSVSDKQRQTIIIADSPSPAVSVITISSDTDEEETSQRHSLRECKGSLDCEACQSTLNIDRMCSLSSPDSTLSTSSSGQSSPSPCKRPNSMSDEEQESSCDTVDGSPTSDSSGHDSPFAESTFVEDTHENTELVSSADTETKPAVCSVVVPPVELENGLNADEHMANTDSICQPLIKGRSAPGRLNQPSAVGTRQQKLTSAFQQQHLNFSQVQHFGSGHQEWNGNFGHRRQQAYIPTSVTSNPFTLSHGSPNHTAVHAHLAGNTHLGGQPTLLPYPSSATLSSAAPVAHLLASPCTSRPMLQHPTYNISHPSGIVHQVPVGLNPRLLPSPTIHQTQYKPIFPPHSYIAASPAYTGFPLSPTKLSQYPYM

SMILES	target or system	test	test system	setting	how to read	measurement	result
COc1cc(Nc2ncc(F)c(Nc3ccc4c(n3)NC(=O)C(C)(C)O4)n2)cc(OC)c1OC	AMPA receptor	binding	–	–	–	IC50	> 10000 nM
Cc1n[nH]c(C)c1CSCc1ccccc1	Jurkat	cytotoxicity	–	–	reference: IC50 HEK293 over IC50 Jurkat	selectivity index	2.4
Nc1ncnc2c1ncn2[C@@H]1O[C@@H]2COP(=O)(O)O[C@H]3[C@@H](O)[C@H](n4cnc5c(=O)[nH]cnc54)O[C@@H]3COP(=O)(O)O[C@H]2[C@H]1O	HFF-1	RNA sequencing, item: Reactome ISG15 antiviral mechanism	–	upregulated pathways	reference: mock	fold enrichment	9.62
COc1c(C)c2c(c(O)c1C/C=C(\C)CCC(=O)O)C(=O)OC2	lung cancer cell lines	cell proliferation	–	average over lines	–	IC50	631 nM
O=S(=O)(c1ccc(O)cc1)c1ccc(O)cc1	HepG2 spheroids	planimetry	–	5 µM, 0 to 24 h	reference: mean area of 72 h spheroids	spheroid area increase	156%
CC(C)[C@H](N)C(=O)N1CCC[C@H]1B(O)O	Ker-CT keratinocytes, GSDMD knockout	inducer, ELISA	–	concentration not given, compound alone	–	IL-1beta release	210 pg/mL and 220 pg/mL and 239 pg/mL
COc1ccc(N2C(=O)N(c3c(C)cccc3Cl)Cc3cnc(Nc4ccc(C5CCN(C)CC5)cc4OC)nc32)nc1	HIPK3 (Homo sapiens, UniProt Q9H422)	kinase activity	–	0.5 µM	–	inhibition	5%
COc1c(CCC[P+](c2ccccc2)(c2ccccc2)c2ccccc2)cc2c(c1OC)OCO2.[I-]	SF-539	SRB	–	–	–	TGI	-4.86 log M
C[C@@H](O)[C@@H](CO)NC(=O)[C@@H](CCCNC(=N)N)NC(=O)[C@@H]1CCCN1C(=O)[C@@H]1CSSC[C@H](NC(=O)[C@H](Cc2ccccc2)NC(=O)CN2CCN(CC(=O)O)CCN(CC(=O)O)CCN(CC(=O)O)CC2)C(=O)N[C@@H](Cc2ccc(O)cc2)C(=O)N[C@@H](Cc2ccccc2)C(=O)N[C@@H](CCC(N)=O)C(=O)N[C@@H](CC(N)=O)C(=O)N1 [gallium-68 labelled]	–	–	Wistar rat, healthy, urinary bladder	intravenous, 8 MBq, 30 min, mean	–	tissue uptake	4.34 %ID/g
Nc1ncc(-c2nc(N3CCOCC3)nc(N3CCOCC3)n2)c(C(F)F)n1	A704	–	–	72 h	–	GI50	70 nM
COc1cc2c(Oc3ccc4[nH]c(C)cc4c3F)ccnc2cc1OCC1(N)CC1	–	item: grade 1 or 2 abdominal pain	paediatric high-risk refractory sarcoma	whole group	–	incidence of adverse event	35.3%
Cc1ccccc1NC(=O)Nc1ccc(CC(=O)N[C@@H](CCCCNC(=O)/C=C/c2cccnc2)C(=O)N[C@@H](CCCC(=O)O)C(=O)NC2(C(=O)NCCOCCOCCOCCOCC(=O)N[C@@H](CCCCNC(=S)Nc3ccc(CCCN(CCN4CCN(CP(=O)(O)O)CCN(CP(=O)(O)O)CC4)CC(=O)O)cc3)C(N)=O)CCCCC2)cc1 [gallium-68 labelled]	B16-F10 cells	–	–	2 h efflux	–	cellular retention	61.8 ± 4.3%
CC[C@H](C)[C@H](NC(=O)[C@H](Cc1ccccc1)NC(=O)[C@H](CCC(=O)O)NC(=O)[C@H](CCCNC(=N)N)NC(=O)[C@H](C)NC(=O)[C@H](C)NC(=O)[C@H](CCC(N)=O)NC(=O)[C@H](CCC(=O)O)NC(=O)[C@H](CCC(=O)O)NC(=O)[C@H](CC(C)C)NC(=O)[C@H](Cc1ccc(O)cc1)NC(=O)[C@H](CO)NC(=O)[C@H](CO)NC(=O)[C@@H](NC(=O)[C@H](CC(=O)O)NC(=O)[C@H](CO)NC(=O)[C@@H](NC(=O)[C@H](Cc1ccccc1)NC(=O)[C@@H](NC(=O)CNC(=O)[C@H](CCC(=O)O)NC(=O)[C@H](C)NC(=O)CCc1c[nH]cn1)[C@@H](C)O)[C@@H](C)O)C(C)C)C(=O)N[C@@H](C)C(=O)N[C@@H](Cc1c[nH]c2ccccc12)C(=O)N[C@@H](CC(C)C)C(=O)N[C@H](C(=O)N[C@@H](CCCNC(=N)N)C(=O)NCC(=O)N[C@@H](CCCNC(=N)N)C(=O)N[C@@H](CCCCNC(=O)COCCOCCNC(=O)COCCOCCNC(=O)CC[C@H](NC(=O)CCCCCCCCCCCCCCCCC(=O)O)C(=O)O)C(=O)NCC(=O)NCC(=O)N[C@@H](CO)C(=O)N[C@@H](CCCCNc1c(NCCCCCN(O)C(=O)CCC(=O)NCCCCCN(O)C(=O)CCC(=O)NCCCCCN(O)C(C)=O)c(=O)c1=O)C(=O)O)C(C)C [zirconium-89 labelled]	–	ex vivo gamma counting	rat, intestine content	subcutaneous, 3 nmol/kg, 168 h, added: [89Zr]-labelled peptide	–	tissue uptake	0.02 %ID/g
O=C1N(Cc2ccccc2Cl)c2ccccc2C12NN=C(c1ccccc1)S2 (stereo not shown)	MDA-MB-468	gene expression array, item: C11orf74 mRNA	–	10 µM, 12 h	reference: untreated, down	fold change	1.57
O=c1cc(-c2ccc(O)cc2)oc2cc(O)cc(O)c12	SH-SY5Y Aβ-GFP cells, TRKB shRNA	–	–	5 µM	–	neurite branch number	1.3 to 1.5
COc1cc(CCC[P+](c2ccccc2)(c2ccccc2)c2ccccc2)c(OC)c2c1OCO2.[I-]	SF-268	SRB	–	–	–	GI50	-5.67 log M
CC[C@H]1CN2CCc3cc(OC)c(OC)cc3[C@@H]2C[C@@H]1C[C@H]1NCCc2cc(OC)c(OC)cc21.Cl.Cl	LDR	silenced CMV-GFP reporter derepression, qHTS	–	–	–	efficacy	22%
CN1CCN(C2(CNC3CCN(c4cccc(-c5cc6cc(F)ccc6[nH]5)c4)CC3)CCC2)CC1	SF-539	–	–	–	–	GI50	1660 nM
CC(c1ccccc1)(c1ccc(O)cc1)c1ccc(O)cc1	HepG2 spheroids	planimetry	–	5 µM, 0 to 24 h	reference: mean area of 72 h spheroids	spheroid area increase	128%
Cn1cncc1C1=CN(c2ncnc3[nH]cnc23)CCS1	SF-268	–	–	CNS cancer	–	CC50	200000 nM
CO[C@H]1C[C@@H]2CC[C@@H](C)[C@@](O)(O2)C(=O)C(=O)N2CCCC[C@H]2C(=O)O[C@H]([C@H](C)C[C@@H]2CC[C@@H](OC(=O)NCCOCCOCCOCCOCCOCCOCCOCCOCCC(=O)N3CCc4cc(Cn5nc(-c6ccc7oc(N)nc7c6)c6c(N)ncnc65)ccc4C3)[C@H](OC)C2)C[C@@H](O)[C@H](C)/C=C(\C)[C@@H](O)[C@@H](OC)C(=O)[C@H](C)C[C@H](C)/C=C/C=C/C=C/1C	–	–	patients with advanced solid tumours	intravenous, 1.6 mg/3 mg weekly, grade ≥3	–	incidence of Headache TRAE	0%
CO[C@H]1[C@H](O)[C@H](O[C@H]2CC[C@@]3(C=O)[C@H](CC[C@@H]4[C@@H]3CC[C@]3(C)[C@@H](C5=CC(=O)OC5)CC[C@]43O)C2)O[C@@H](C)[C@@H]1O	MYBPC3 iPSC cardiomyocytes	plate-normalised	–	concentration not given, 24 h, hit retest	–	MyBP-C level	10.1%
CC[C@H](C)[C@H](NC(=O)[C@H](C)NC(=O)[C@H](CCCCN)NC(=O)[C@H](CC(C)C)NC(=O)[C@H](C)NC(=O)[C@@H](NC(=O)[C@H](Cc1c[nH]cn1)NC(=O)[C@H](CC(C)C)NC(=O)[C@@H](NC(=O)[C@@H](NC(=O)[C@H](CCCCN)NC(=O)[C@H](C)NC(=O)[C@H](C)NC(=O)[C@H](CO)NC(=O)[C@H](CCCCN)NC(=O)[C@H](Cc1ccccc1)NC(=O)[C@@H](NC(=O)[C@H](CCCCN)NC(=O)[C@H](CC(C)C)NC(=O)[C@H](Cc1ccccc1)NC(=O)[C@H](CO)NC(=O)[C@H](CCCCN)NC(=O)[C@H](Cc1c[nH]c2ccccc12)NC(=O)[C@H](CCCCN)NC(C)=O)[C@@H](C)O)[C@@H](C)O)C(C)C)[C@@H](C)O)C(=O)N[C@@H](CO)C(=O)N[C@@H](CO)C(N)=O	Proteus	–	–	20 strains	–	MIC90	> 64 µg/mL
Cc1ccc(S(=O)(=O)NCc2ccc(CNC(=O)c3ccc(F)cc3)cc2)cc1	J774A.1, bacteria-infected	item: TNF-alpha	–	concentration not given	–	inhibition	59%
CC[C@H](C)[C@@H]1NC(=O)[C@@H]2CCCN2C(=O)[C@H](CC(C)C)NC(=O)[C@H](CC(C)C)NC(=O)CNC(=O)[C@@H](NC(=O)[C@@H](NC(=O)[C@H](CC(=O)O)NC(=O)CNC(=O)[C@@H](NC(=O)[C@H](C)NC(=O)CNC(=O)[C@H](CCCCN)NC(=O)[C@H](CC(C)C)NC(=O)[C@H](CC(C)C)NC(=O)[C@H](CCCCN)NC(=O)CNC(=O)[C@@H](NC(=O)[C@@H](N)CC(C)C)C(C)C)C(C)C)C(C)C)CSSC[C@@H](C(=O)O)NC1=O	–	RNA-seq, item: Fam20c	mouse, traumatic brain injury model, frontal cortex and hippocampus	dose not given	reference: TBI alone	log2 fold change	-0.935
C[C@H]1CN(c2n[nH]c3nc(N[C@H]4CC[C@H](NS(=O)(=O)CCC(F)(F)F)CC4)ncc23)CCO1	Dynactin subunit 2 (DCTN2, Homo sapiens, UniProt Q13561)	Kinobeads competition, item: DCTN2	–	0.16 µM, unit not given	reference: vehicle	remaining binding	0.7
CCN(CC)c1ccc(C=NNC(=O)CSc2nc3ccccc3c(=O)n2Cc2ccc(S(N)(=O)=O)cc2)c(O)c1	RPMI-8226	NCI five-dose screen	–	–	–	CC50	> 100000 nM
CN1CC[C@@]2(C)c3cc(OC(=O)Nc4ccccc4)ccc3N(C)[C@@H]12	mouse primary cortical neurons	Western blot	–	up to 1 µM	–	α-synuclein protein decrease	≤ 70%

A few entries again:
SMILES	target or system	test	test system	setting	how to read	measurement	result
CCN(CC)c1ccc(C=NNC(=O)CSc2nc3ccccc3c(=O)n2Cc2ccc(S(N)(=O)=O)cc2)c(O)c1	RPMI-8226	NCI five-dose screen	–	–	–	CC50	> 100000 nM
COc1c(CCC[P+](c2ccccc2)(c2ccccc2)c2ccccc2)cc2c(c1OC)OCO2.[I-]	SF-539	SRB	–	–	–	TGI	-4.86 log M
O=S(=O)(c1ccc(O)cc1)c1ccc(O)cc1	HepG2 spheroids	planimetry	–	5 µM, 0 to 24 h	reference: mean area of 72 h spheroids	spheroid area increase	156%
C[C@H]1CN(c2n[nH]c3nc(N[C@H]4CC[C@H](NS(=O)(=O)CCC(F)(F)F)CC4)ncc23)CCO1	Dynactin subunit 2 (DCTN2, Homo sapiens, UniProt Q13561)	Kinobeads competition, item: DCTN2	–	0.16 µM, unit not given	reference: vehicle	remaining binding	0.7
